Results from different studies.
Compare with care: the assays were run in different laboratories. ± marks the error that the study gave.
UniProt O14980, sequence (whole entry, looked up): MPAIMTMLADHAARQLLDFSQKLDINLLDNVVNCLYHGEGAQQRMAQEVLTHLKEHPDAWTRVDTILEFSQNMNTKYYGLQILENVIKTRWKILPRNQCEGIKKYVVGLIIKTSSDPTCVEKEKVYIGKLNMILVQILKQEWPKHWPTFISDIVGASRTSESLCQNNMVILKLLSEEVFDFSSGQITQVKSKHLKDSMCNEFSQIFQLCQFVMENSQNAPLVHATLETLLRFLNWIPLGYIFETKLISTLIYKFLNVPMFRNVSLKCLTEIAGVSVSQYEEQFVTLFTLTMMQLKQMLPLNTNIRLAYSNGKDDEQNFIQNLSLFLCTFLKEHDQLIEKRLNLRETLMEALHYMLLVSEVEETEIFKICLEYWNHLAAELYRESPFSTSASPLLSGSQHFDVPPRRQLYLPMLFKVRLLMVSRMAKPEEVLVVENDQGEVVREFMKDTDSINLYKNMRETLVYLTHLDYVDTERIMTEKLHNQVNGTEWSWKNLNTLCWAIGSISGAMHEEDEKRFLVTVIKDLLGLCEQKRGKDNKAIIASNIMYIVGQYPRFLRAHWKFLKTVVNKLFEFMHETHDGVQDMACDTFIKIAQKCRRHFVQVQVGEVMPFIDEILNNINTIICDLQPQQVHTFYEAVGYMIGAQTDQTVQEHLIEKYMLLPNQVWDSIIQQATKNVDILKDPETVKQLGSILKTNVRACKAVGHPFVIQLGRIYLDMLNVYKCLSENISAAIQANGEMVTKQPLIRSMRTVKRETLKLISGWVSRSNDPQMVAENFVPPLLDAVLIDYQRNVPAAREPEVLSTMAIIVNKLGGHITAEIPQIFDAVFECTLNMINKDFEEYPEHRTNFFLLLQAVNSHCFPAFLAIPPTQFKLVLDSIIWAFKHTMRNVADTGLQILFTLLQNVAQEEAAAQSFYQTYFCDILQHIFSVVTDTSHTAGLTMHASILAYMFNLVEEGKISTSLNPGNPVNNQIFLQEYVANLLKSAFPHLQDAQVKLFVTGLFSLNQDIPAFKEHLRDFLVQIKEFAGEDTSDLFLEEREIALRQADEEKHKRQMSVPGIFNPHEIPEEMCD
UniProt Q4J6C6, sequence (whole entry, looked up): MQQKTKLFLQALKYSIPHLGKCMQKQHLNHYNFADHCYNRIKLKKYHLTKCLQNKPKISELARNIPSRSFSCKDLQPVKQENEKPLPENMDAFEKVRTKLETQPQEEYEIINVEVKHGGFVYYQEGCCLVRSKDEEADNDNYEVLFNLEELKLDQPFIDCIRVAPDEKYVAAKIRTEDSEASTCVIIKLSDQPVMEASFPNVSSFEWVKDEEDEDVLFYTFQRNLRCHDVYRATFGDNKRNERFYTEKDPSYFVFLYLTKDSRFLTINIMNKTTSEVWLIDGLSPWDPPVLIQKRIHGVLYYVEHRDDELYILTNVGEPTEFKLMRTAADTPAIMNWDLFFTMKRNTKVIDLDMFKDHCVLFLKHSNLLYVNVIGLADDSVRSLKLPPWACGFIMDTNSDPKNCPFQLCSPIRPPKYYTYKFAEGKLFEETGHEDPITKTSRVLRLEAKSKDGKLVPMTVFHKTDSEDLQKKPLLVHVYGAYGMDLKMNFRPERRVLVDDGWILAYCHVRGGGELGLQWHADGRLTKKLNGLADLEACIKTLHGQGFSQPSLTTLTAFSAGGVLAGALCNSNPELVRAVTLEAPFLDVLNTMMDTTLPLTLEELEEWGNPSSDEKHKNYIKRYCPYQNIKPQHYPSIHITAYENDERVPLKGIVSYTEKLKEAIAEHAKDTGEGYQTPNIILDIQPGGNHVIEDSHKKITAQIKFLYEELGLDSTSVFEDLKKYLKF
UniProt P05177, sequence (whole entry, looked up): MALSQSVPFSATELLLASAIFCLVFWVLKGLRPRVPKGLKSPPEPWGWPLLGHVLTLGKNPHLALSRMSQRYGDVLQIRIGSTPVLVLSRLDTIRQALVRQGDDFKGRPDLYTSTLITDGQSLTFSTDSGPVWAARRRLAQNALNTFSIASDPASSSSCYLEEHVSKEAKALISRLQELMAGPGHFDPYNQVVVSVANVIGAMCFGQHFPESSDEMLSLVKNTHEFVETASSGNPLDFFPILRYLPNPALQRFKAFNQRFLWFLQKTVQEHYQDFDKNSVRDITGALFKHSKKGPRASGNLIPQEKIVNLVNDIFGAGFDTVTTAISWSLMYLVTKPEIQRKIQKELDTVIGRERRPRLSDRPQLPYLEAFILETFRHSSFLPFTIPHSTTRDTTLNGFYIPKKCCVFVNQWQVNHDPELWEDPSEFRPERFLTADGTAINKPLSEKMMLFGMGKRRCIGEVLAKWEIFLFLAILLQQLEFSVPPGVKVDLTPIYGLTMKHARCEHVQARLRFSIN

Under “patients with adverse event”, `CN1CC[C@@H](c2c(O)cc(O)c3c(=O)cc(-c4ccc(C(F)(F)F)cc4Cl)oc23)[C@@H]1CO` is recorded as 33.3% (refers to: Nausea; B-cell malignancies; oral, 100 mg, intermittent dosing).
With `[Cl-].[Cl-].[Pt+2].[Ru+2].c1ccc(-c2nccnc2-c2ccccn2)nc1.c1cnc2c(c1)ccc1cccnc12.c1cnc2c(c1)ccc1cccnc12` the hatching rate was 30 ± 3.7% (Danio rerio; embryos; 45 µM, 96 h).
For `COc1cccc(-c2n[nH]c(SCc3ccccn3)n2)c1OC`, “revertant colonies per plate” read 10 (Salmonella typhimurium; Ames test, preincubation; TA1537; 0.25 mg/plate, without S9).
`CC[C@H](C)[C@H](NC(=O)[C@H](Cc1ccccc1)NC(=O)[C@H](CCC(=O)O)NC(=O)[C@H](CCCNC(=N)N)NC(=O)[C@H](C)NC(=O)[C@H](C)NC(=O)[C@H](CCC(N)=O)NC(=O)[C@H](CCC(=O)O)NC(=O)[C@H](CCC(=O)O)NC(=O)[C@H](CC(C)C)NC(=O)[C@H](Cc1ccc(O)cc1)NC(=O)[C@H](CO)NC(=O)[C@H](CO)NC(=O)[C@@H](NC(=O)[C@H](CC(=O)O)NC(=O)[C@H](CO)NC(=O)[C@@H](NC(=O)[C@H](Cc1ccccc1)NC(=O)[C@@H](NC(=O)CNC(=O)[C@H](CCC(=O)O)NC(=O)[C@H](C)NC(=O)CCc1cnc[nH]1)[C@@H](C)O)[C@@H](C)O)C(C)C)C(=O)N[C@@H](C)C(=O)N[C@@H](Cc1c[nH]c2ccccc12)C(=O)N[C@@H](CC(C)C)C(=O)N[C@H](C(=O)N[C@@H](CCCNC(=N)N)C(=O)NCC(=O)N[C@@H](CCCNC(=N)N)C(=O)N[C@@H](CCCCNC(=O)COCCOCCNC(=O)COCCOCCNC(=O)CC[C@H](NC(=O)CCCCCCCCCCCCCCCCC(=O)O)C(=O)O)C(=O)NCC(=O)NCC(=O)N[C@@H](CO)C(=O)N[C@@H](CCSC)C(=O)N[C@H](C(=O)N[C@@H](CCCCNc1c(NCCCCCN(O)C(=O)CCC(=O)NCCCCCN(O)C(=O)CCC(=O)NCCCCCN(O)C(C)=O)c(=O)c1=O)C(=O)O)C(C)C)C(C)C` gave an EC50 of 2.8 pM (Glucagon-like peptide 1 receptor (GLP1R, Homo sapiens, UniProt P43220); cAMP reporter gene, agonist, CRE luciferase; BHK; without Zr, 0% HSA).
`C=C1CC[C@H](OCCCNC(=O)CCOCCOCCOCCOCCOCCOCCOCCOCCOCCOCCOCCOCCOCCOCCOCCOCCOCCOCCOCCOCCOCCOCCOCCOCCOCCOCCOCCOCCOCCOCCOCCOCCOCCOCCOCCOCCNC(=O)CCN2C(=O)CC(SC[C@H](NC(=O)[C@H](CCCNC(=N)N)NC(=O)[C@@H]3CCCN3C(=O)[C@H](CCC(N)=O)NC(=O)[C@H](CC(C)C)NC(=O)[C@H](CCCCN)NC(=O)[C@H](C)NC(=O)[C@@H]3CCCN3C(=O)[C@@H]3CCCN3C(=O)[C@H](CCCCN)NC(=O)[C@H](CCCCN)NC(=O)[C@H](CO)NC(=O)[C@H](CCC(=O)O)NC(=O)[C@H](CCCCN)NC(=O)[C@H](CCCNC(=N)N)NC(=O)[C@H](CCC(N)=O)NC(=O)[C@H](CCC(N)=O)NC(=O)[C@@H](NC(=O)[C@H](CCCNC(=N)N)NC(=O)[C@H](CCC(N)=O)NC(=O)[C@H](Cc3c[nH]cn3)NC(=O)[C@H](CCC(=O)O)NC(=O)[C@@H]3CCCN3C(=O)[C@H](CO)NC(=O)[C@H](CC(C)C)NC(=O)[C@H](Cc3ccccc3)NC(=O)[C@H](CNC(=O)CCCCCCC)NC(=O)[C@H](CO)NC(=O)CN)C(C)C)C(=O)O)C2=O)C/C1=C/C=C1\CCC[C@]2(C)[C@@H]([C@H](C)CCCC(C)(C)O)CC[C@@H]12` (stereo partly drawn) gave a half-life of ~123 h (allometric scaling; human).
`CO[C@H]1C[C@@H]2CC[C@@H](C)[C@@](O)(O2)C(=O)C(=O)N2CCCC[C@H]2C(=O)O[C@H]([C@H](C)C[C@@H]2CC[C@@H](OC(=O)NCCOCCOCCOCCOCCOCCOCCOCCOCCC(=O)N3CCc4cc(Cn5nc(-c6ccc7oc(N)nc7c6)c6c(N)ncnc65)ccc4C3)[C@H](OC)C2)C[C@@H](O)[C@H](C)/C=C(\C)[C@@H](O)[C@@H](OC)C(=O)[C@H](C)C[C@H](C)/C=C/C=C/C=C/1C` has a TRAE incidence of 0% (phase 1 dose escalation, refers to: decreased appetite; advanced solid tumour patients; intravenous, 6 mg weekly, grade ≥3).
`OCc1ncc2n1-c1ccc(Cl)cc1C(c1ccccc1F)=NC2` has an AUC(0-inf) of 41.6 ng·h/mL (human, plasma; oral, 7.5 mg of midazolam, day 26, geometric mean, no amenamevir).
The relative abundance of `C[C@H]1CN(c2n[nH]c3nc(N[C@H]4CC[C@H](NS(=O)(=O)CCC(F)(F)F)CC4)ncc23)CCO1` is reported as 1.06 (Exportin-1 (XPO1, Homo sapiens, UniProt O14980); inhibitor, Kinobeads competition profiling; 0.032 µM; baseline: vehicle).
With `O=C1c2c(O)c(=O)ccn2N([C@@H]2c3ccccc3SCc3c2ccc(F)c3F)[C@@H]2COCCN12` the plasma concentration was 44.6 ng/mL (BALB/c mice, plasma; oral, 5 mg/kg baloxavir marboxil, 1 h).
Under “grade 1 or 2 Triglyceride elevation”, `COc1cc2c(Oc3ccc4[nH]c(C)cc4c3F)ccnc2cc1OCC1(N)CC1` is recorded as 18.2% (paediatric recurrent refractory sarcoma; 12 mg).
`CC(C)C[C@H](NC(=O)[C@H](CO)NC(=O)CNC(=O)[C@H](CCCNC(=N)N)NC(=O)[C@H](CCCNC(=N)N)NC(=O)[C@@H](N)CCCNC(=N)N)C(=O)N[C@H](C(=O)N[C@H](C(=O)N[C@@H](CCCNC(=N)N)C(=O)N[C@@H](CCCNC(=N)N)C(=O)N[C@@H](CCCNC(=N)N)C(=O)N[C@@H](Cc1ccc(O)cc1)C(N)=O)[C@@H](C)O)C(C)C` gave a hemolysis of 2% (human erythrocytes; 400 µM, 1 h; baseline: Triton X-100).
`O=C(c1ccc(Cl)cc1)N1CCN2C(=O)N(OC(=O)N3CCOc4ccccc43)C(=O)C2C1` (stereo not drawn) — result for “mean protein ratio”: 1.11 (PREPL (Homo sapiens, UniProt Q4J6C6); MS-based ABPP; SW-620 conditioned medium; 10 µM, 1 h, 37 °C; baseline: compound over DMSO, lower = more inhibition).
`CC[C@H](C)[C@@H]([C@@H](CC(=O)N1CCC[C@H]1[C@H](OC)[C@@H](C)C(=O)N[C@H](C)[C@@H](O)c1ccccc1)OC)N(C)C(=O)[C@@H](NC(=O)[C@H](C(C)C)N(C)C(=O)OCc1ccc(NC(=O)[C@H](C)NC(=O)[C@@H](NC(=O)CCCCCN2C(=O)CC(SC[C@H](NC(=O)[C@H](CC(=O)O)NC(=O)[C@H](CCCNC(=N)N)NC(=O)[C@H](CC(=O)O)NC(=O)CCCCn3cc(CCCC(=O)Nc4nnc(S(N)(=O)=O)s4)nn3)C(=O)O)C2=O)C(C)C)cc1)C(C)C` (stereo partly drawn): “maximal tolerated dose” 250 nmol/kg (BALB/c nu/nu mice, SK-RC-52 xenograft; intravenous).
`O=c1ccc2ccccc2o1` gave a chance response of 0.09% (NHEK; ER stress, refers to: ATF4; concentration not given, 1 h).
The remaining compound of `CC(C)CC(=O)OC[C@H]1O[C@@](C#N)(c2ccc3c(N)ncnn23)[C@H](O)[C@@H]1O` is reported as 92.9 ± 2.49% (Cytochrome P450 1A2 (CYP1A2, Homo sapiens, UniProt P05177); metabolic stability; recombinant enzyme; 1 µM, 30 min).
